Measured values of several laboratories.
Compare with care: the assays were run in different laboratories. Numbers after ± are the reported error.

CC(CCC(=O)NCC(=O)O)C1CCC2C3C(O)CC4CC(OC5OC(C(=O)O)C(O)C(O)C5O)CCC4(C)C3CCC12C (stereo not drawn)  plasma concentration (human, SLCO1B1 *5/*15, plasma; geometric mean, sex-adjusted): 166 ng/mL
CC[C@H](C)[C@@H]1NC(=O)[C@H](CCCCN)NC(=O)[C@H](CCCCN)NC(=O)[C@H](Cc2ccc(O)cc2)NC(=O)[C@H](CC(C)C)NC(=O)[C@@H]2CCCN2C(=O)[C@H](C)NC(=O)CNC(=O)CNC(=O)[C@H](CO)NC(=O)CNC(=O)CNC(=O)[C@H](CO)NC(=O)[C@H](CCC(=O)O)NC(=O)[C@H](CC(C)C)NC(=O)[C@H](CC(C)C)NC(=O)[C@H](CCCCN)NC(=O)[C@H](CCCCN)NC(=O)[C@H]([C@@H](C)CC)NC(=O)[C@H]([C@@H](C)CC)NC(=O)[C@H](CCCCN)NC(=O)[C@H](CCCCN)NC(=O)[C@H](Cc2ccc(O)cc2)NC(=O)[C@H](CC(C)C)NC(=O)[C@@H]2CCCN2C(=O)[C@H](C)NC(=O)CNC(=O)[C@@H]2CSSC[C@H](NC(=O)[C@H](CC(C)C)NC(=O)[C@H](CCCCN)NC(=O)[C@H](CCCCN)NC(=O)[C@H]([C@@H](C)CC)NC1=O)C(=O)N[C@@H](CCC(=O)O)C(=O)N[C@@H](CO)C(=O)NCC(=O)N2  HC10 (hemolysis; uninfected human erythrocytes; 1 h): 95.7 ± 3.5 µM
CC[C@H](C)C(=O)N1CCC(NC(=O)Nc2ccc(OC(F)(F)F)c(F)c2)CC1  subjects with palpitations TEAE (healthy volunteers; oral, 0.5 mg single dose): 0%
C[C@@H]1CC[C@H]2[C@@H](C)CO[C@@H]3O[C@@]4(C)CC[C@@H]1[C@]32OO4  half-life (LC-MS/MS; Sprague-Dawley rat, male, plasma; intravenous, 5 mg/kg): 27.1 ± 3.17 min
O=C(c1ccc(F)cc1)C1CCN(C2Cc3c(cccc3OCC[18F])CC2O)CC1 (single isomer, unassigned; (-))  tissue uptake (Sprague-Dawley rat, male, blood; intravenous, dose not given, 5 min): 0.209 ± 0.029 %ID/g
O=c1c2cc(Cl)ccc2sc2c(NCc3ccccc3)nc3ccccc3c12  body weight (BALB/c nude mice; i.p., 30 mg/kg): 19.5 ± 1.24 g
CSCC[C@@H]1NC(=O)[C@@H]2CSSC[C@H](NC(=O)[C@H](CO)NC(=O)[C@H](C)N)C(=O)N[C@@H](CCCNC(=N)N)C(=O)N[C@@H]([C@@H](C)O)C(=O)N3CCC[C@H]3C(=O)N[C@@H](CCCCN)C(=O)N[C@@H](CC(=O)O)C(=O)N[C@H]3CSSC[C@H](NC(=O)[C@H](CCCCN)NC(=O)[C@H](CCCNC(=N)N)NC(=O)[C@H](CC(N)=O)NC1=O)C(=O)N[C@@H](CCCCN)C(=O)N[C@H]1CSSC[C@H](NC(=O)[C@@H]4CCCN4C(=O)[C@H](CC(=O)O)NC(=O)[C@H](C)NC3=O)C(=O)N[C@@H](C)C(=O)N[C@@H](CCCCN)C(=O)N[C@@H](CCC(=O)O)C(=O)N[C@@H]([C@@H](C)O)C(=O)NCC(=O)N[C@@H](CSSC[C@@H](C(N)=O)NC(=O)[C@H](CCCNC(=N)N)NC(=O)[C@H](CC(N)=O)NC1=O)C(=O)N1CCC[C@H]1C(=O)N[C@@H](Cc1ccc(O)cc1)C(=O)NCC(=O)N[C@@H](CCCCN)C(=O)N2  Phosphorus (DA rat pristane-induced arthritis, serum; subcutaneous, 0.1 mg/kg once weekly, 21 days): 3.98 mg/dL
O=C(O)CC[C@H](NC(=O)O[C@@H](CCCCNC(=O)c1ccc([18F])cc1)C(=O)O)C(=O)O  tissue uptake (mouse, PC-3 PIP/flu xenografts, large intestine; 30 min): 3.82 ± 5.87 %ID/g
CC(C)[C@H](NC(=O)CNC(=O)[C@H](CCC(N)=O)NC(=O)[C@H](C)N)C(=O)O  discontinuation due to AE (healthy male volunteers; intravenous, 45 mg/kg/h, 2 h, with: LPS 2 ng/kg): 0%
CC1(C)C(=CC=CC=CC2=[N+](CCCCN=[N+]=[N-])c3ccc(S(=O)(=O)[O-])cc3C2(C)C)N(CCCCCC(=O)O)c2ccccc21  molar absorption coefficient (PBS): 189000 M⁻¹ cm⁻¹
NC(=O)N[C@H]1CC[C@H](CCN2CCN(c3cccc(Cl)c3Cl)CC2)CC1  plasma exposure (rat; oral, 3 mg/kg cariprazine; relative to: cariprazine): ~4%
CC[C@@H]1C[C@]1(NC(=O)[C@@H]1C[C@@]2(CN1C(=O)[C@@H](NC(=O)[C@@H](NC(=O)[C@@H]1CCCCN1C(C)C)C1CCCCC1)C(C)(C)C)C(C)(C)C21CCC1)C(=O)NS(=O)(=O)N1CCCC1  subjects with adverse event (item: Diarrhea; human; oral, 50 mg, with: ritonavir 100 mg): 50%
C/C=C/C=C/C/C=C/CCCCCCCc1cccc(O)c1O  tissue concentration (female Kunming mice, tumour-bearing, heart; intravenous, 10 mg/kg, 1 h): 12700 ± 1680 ng/g
O=C(O)CCn1c(=O)oc2cc(Cl)c(Cl)cc21  free Cmax (rat, plasma; intravenous bolus, 27 mg/kg): 92 µM
NS(=O)(=O)NCC(F)(F)c1ccccc1F  therapeutic index (6 Hz psychomotor seizure test; mouse; relative to: rotarod TD50 over 6 Hz ED50): 11.4
CCN(Cc1ccccc1)C(=O)CCc1nc(CN2CCN(C(=O)Cc3ccc(OC)c(OC)c3)CC2)no1  concentration (rat, plasma; intravenous, 1 mg/kg, 15 min): 223 ng/mL
CN(C)C(CNC(=O)Nc1cc(C(F)(F)F)ccc1N1CCOCC1)c1ccncc1 (stereo not drawn)  serum chloride (mouse, serum; intraperitoneal, 180 mg/kg single dose): 111 mmol/L
C=C1C(=O)O[C@@H]2C[C@H](C)[C@@H]3C[C@H](OC(C)=O)[C@H](OC(C)=O)[C@@]3(C)C[C@H]12  CC50 (propidium iodide flow cytometry; primary splenocytes, BALB/c mouse; 48 h, 10% fetal calf serum): 84.4 ± 3.8 µg/mL
CC(C)C[C@H](NC(=O)[C@H](CCCCN)NC(=O)[C@H](CC(C)C)NC(=O)[C@H](CC(C)C)NC(=O)[C@H](CCCCN)NC(=O)[C@H](CCCCN)NC(=O)[C@H](CC(C)C)NC(=O)[C@H](CC(C)C)NC(=O)[C@H](CCCCN)NC(=O)[C@H](CC(C)C)NC(=O)[C@H](CC(C)C)NC(=O)[C@H](CCCCN)NC(=O)[C@H](CCCCN)NC(=O)[C@H](CC(C)C)NC(=O)[C@@H](N)CSSC[C@H](N)C(=O)N[C@@H](CC(C)C)C(=O)N[C@@H](Cc1c[nH]cn1)C(=O)N[C@@H](CCC(=O)O)C(=O)N[C@@H](CC(C)C)C(=O)N[C@@H](CC(C)C)C(=O)N[C@@H](CCC(=O)O)C(=O)N[C@@H](Cc1c[nH]cn1)C(=O)N[C@@H](CC(C)C)C(=O)N[C@@H](Cc1c[nH]cn1)C(=O)N[C@@H](CCC(=O)O)C(=O)N[C@@H](CC(C)C)C(=O)N[C@@H](CC(C)C)C(=O)N[C@@H](CCC(=O)O)C(=O)N[C@@H](Cc1c[nH]cn1)C(N)=O)C(N)=O  compound remaining (chemical stability, HPLC; mouse, serum; 8 h): ~76.1%
CC[C@H](C)[C@H](NC(=O)[C@H](CCCNC(=N)N)NC(=O)[C@H](CC(C)C)NC(=O)[C@H](CC(C)C)NC(=O)[C@H](C)NC(=O)[C@@H](NC(=O)[C@H](CCCCN)NC(=O)[C@H](CCCCN)NC(=O)[C@H](C)NC(=O)[C@@H](NC(=O)[C@H](Cc1c[nH]c2ccccc12)NC(=O)[C@@H](NC(=O)[C@H](Cc1ccc(O)cc1)NC(=O)[C@H](Cc1ccccc1)NC(=O)[C@H](CC(=O)O)NC(=O)[C@H](Cc1ccc(O)cc1)NC(=O)[C@@H](NC(=O)[C@H](CC(C)C)NC(=O)[C@H](CO)NC(=O)[C@H](C)NC(=O)[C@H](C)NC(=O)[C@@H](NC(=O)[C@@H](NC(=O)[C@@H](N)CC(C)C)[C@@H](C)CC)C(C)C)C(C)C)[C@@H](C)O)[C@@H](C)CC)C(C)C)C(=O)N[C@@H](C)C(=O)N[C@@H](CCCCN)C(=O)N[C@@H](CCCCN)C(=O)N[C@H](C(=O)N[C@@H](CC(C)C)C(=O)N[C@@H](Cc1ccc(O)cc1)C(=O)N[C@@H](CC(C)C)C(=O)N[C@@H](C)C(=O)N[C@@H](CCCNC(=N)N)C(=O)N[C@@H](CC(N)=O)C(=O)N[C@@H](C)C(=O)O)C(C)C  hemolysis (human erythrocytes; 4 µM, 1 h, pH 7.4, 37 °C): 8.5%
CC(C)[C@H](NC(=O)CNC(=O)[C@H](CCC(N)=O)NC(=O)[C@H](C)N)C(=O)O  subjects with severe adverse events (human; intravenous infusion, 90 mg/kg/h, 2 h infusion): 0%
N=C(N)NCc1ccc(C(=O)NCCCC[C@H](NC(=O)N[C@@H](CCC(=O)O)C(=O)O)C(=O)O)cc1[211At]  tissue uptake (SCID mouse, PC-3 xenografts, stomach; 4 h): 2.87 ± 0.55 %ID/g
CSCC[C@H](NC(=O)CNC(=O)[C@H](CC(=O)O)NC(=O)[C@@H](NC(=O)[C@@H](NC(=O)[C@@H](NC(=O)CNC(=O)[C@H](CCC(N)=O)NC(=O)[C@H](CCSC)NC(=O)[C@H](CC(=O)O)NC(=O)[C@H](C)NC(=O)[C@H](C)NC(=O)[C@@H](NC(=O)[C@H](CO)NC(=O)[C@@H](N)CC(C)C)[C@@H](C)O)C(C)C)C(C)C)[C@@H](C)O)C(=O)N[C@@H](C)C(=O)N[C@@H](CO)C(=O)NCC(=O)N[C@@H](CC(C)C)C(=O)N[C@@H](CC(=O)O)C(=O)N[C@@H](CCCCN)C(=O)N[C@@H](CC(=O)O)C(=O)N[C@@H](Cc1ccc(O)cc1)C(=O)N[C@@H](CC(C)C)C(=O)N[C@@H](CCCCN)C(=O)N1CCC[C@H]1C(=O)N[C@@H](CC(=O)O)C(=O)N[C@@H](CC(=O)O)C(=O)O  Tmax (human, serum; intravenous, 1.66 mg/kg, patients, infusion): 4.8 min
Cc1ccc(/C=C/C(=O)O)cc1-c1cc2c(cc1C)C(C)(C)CCC2(C)C  LDL level (Sprague-Dawley rat, male, plasma; oral, 100 mg/kg, 6 h, sesame oil vehicle): 7 ± 3.5 mg/dL
